Measurements collected from several papers.
Protocols differ between the studies behind these lines. ± marks the error that the study gave.

For CN(N=O)c1ccc(F)cc1, “revertant colonies per plate” read 16 ± 3 (Salmonella typhimurium; mutagenicity, Ames plate incorporation; TA1535; 500 µg/plate, 3 d, without S9, methanol).
For O=[N+]([O-])c1ccc(N2CCC(NCCC(O)c3ccc(F)c4ccccc34)CC2)c(C(F)(F)F)c1 (centres unmarked), the induction factor was 0.88 (Salmonella typhimurium; genotoxicity, SOS/umu test; TA1535/pSK1002; 0.008 mg/mL, 4 h, with S9, full range).
CNC(=O)c1c(N(C)N=O)ncn1C: “revertant colonies per plate” 20.3 ± 3 (Salmonella typhimurium; mutagenicity, Ames plate incorporation; TA1535; 50 µg/plate, without S9, methanol).
The revertant ratio of Cc1cc(C(=O)NC(C)(C)COc2cccc3c2C(N)=NS(=O)(=O)N3)cc(C)n1 is reported as 0.5 (Salmonella typhimurium; Ames test, confirmatory; TA1537; 5000 µg/plate; baseline: solvent control).
CC(=O)Nc1cccc(-n2c(=O)n(C3CC3)c(=O)c3c(Nc4ccc(I)cc4F)n(C)c(=O)c(C)c32)c1 gave a maximum inhibition of 0% (human coronavirus OC43; virus-induced cell killing; MRC-5; maximum over 10 doses).
The induction factor of OC(CCN1CC=C(c2ccc(F)cc2)CC1)c1ccc(F)c2ccccc12 (centres unmarked) is reported as 0.7 (Salmonella typhimurium; genotoxicity, SOS/umu test; TA1535/pSK1002; 0.001 mg/mL, 4 h, without S9, lower range).
COc1cccc(-c2n[nH]c(SCc3ccccn3)n2)c1OC: “revertant colonies per plate” 17 (Salmonella typhimurium; Ames test, preincubation; TA1535; 0.063 mg/plate, with rat liver S9).
For O=NN1CCN(C2CCCC2)CC1, “revertant colonies per plate” read 162 ± 19 (Salmonella typhimurium; mutagenicity, Ames plate incorporation; TA100; 1500 µg/plate, 3 d, without S9, methanol).
The viability of N#C[C@@]1(n2ccc(N)nc2=O)O[C@H](CO)[C@@H](O)[C@H]1O is reported as 93% (Salmonella typhimurium; TA1537; 5 µM, without S9).
O=[N+]([O-])c1ccc(NC2CCNCC2)c(C(F)(F)F)c1 gave a survival of 133% (Salmonella typhimurium; SOS/umu test; TA1535/pSK1002; 0.002 mg/mL, 4 h, without S9, full range).
For CN(CC(C)(C)C)N=O, “revertant colonies per plate” read 9.3 ± 2 (Salmonella typhimurium; mutagenicity, Ames plate incorporation; TA1537; 150 µg/plate, without S9, methanol).
COC1=CC(c2cc3ccccc3[nH]2)=N/C1=C\c1[nH]c(C)cc1C gave a maximum inhibition of 1.2% (human coronavirus OC43; virus-induced cell killing; MRC-5; maximum over 10 doses).
O=[N+]([O-])c1ccc(N2CCN(CCC(O)c3ccc(F)cc3)CC2)c(C(F)(F)F)c1 (centres unmarked) gave a survival of 98.2% (Salmonella typhimurium; SOS/umu test; TA1535/pSK1002; 0.001 mg/mL, 4 h, with S9, lower range).
CC(=O)N1CCC(C(=O)N2CCN3C(=O)c4cc(-c5ccccc5)ccc4NC(=O)C3C2)CC1 (centres unmarked): “fold increase in revertants” 0.9 (Salmonella typhimurium; TA98; 158 µg/plate; baseline: vehicle).

For quick reference, copied from above:
The induction factor of OC(CCN1CC=C(c2ccc(F)cc2)CC1)c1ccc(F)c2ccccc12 (centres unmarked) is reported as 0.7 (Salmonella typhimurium; genotoxicity, SOS/umu test; TA1535/pSK1002; 0.001 mg/mL, 4 h, without S9, lower range).
